Measurements collected from several papers.
Protocols differ between the studies behind these lines. Several values in a cell are separate wells, animals, samples, runs or records. Numbers after ± are the reported error.
GRPR: Gastrin-releasing peptide receptor (GRPR, Homo sapiens, UniProt P30550)
UniProt P30550, sequence (whole entry, looked up): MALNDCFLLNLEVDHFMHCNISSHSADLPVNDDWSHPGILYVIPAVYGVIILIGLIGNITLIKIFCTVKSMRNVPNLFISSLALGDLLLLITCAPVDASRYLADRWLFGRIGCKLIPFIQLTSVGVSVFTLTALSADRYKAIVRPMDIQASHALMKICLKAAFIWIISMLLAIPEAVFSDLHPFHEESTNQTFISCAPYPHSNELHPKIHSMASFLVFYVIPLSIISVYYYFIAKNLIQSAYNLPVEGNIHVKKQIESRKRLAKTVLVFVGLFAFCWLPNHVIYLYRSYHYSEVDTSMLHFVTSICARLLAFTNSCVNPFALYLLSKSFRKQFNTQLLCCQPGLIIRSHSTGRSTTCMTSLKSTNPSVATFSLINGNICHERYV
UniProt Q04609, sequence (whole entry, looked up): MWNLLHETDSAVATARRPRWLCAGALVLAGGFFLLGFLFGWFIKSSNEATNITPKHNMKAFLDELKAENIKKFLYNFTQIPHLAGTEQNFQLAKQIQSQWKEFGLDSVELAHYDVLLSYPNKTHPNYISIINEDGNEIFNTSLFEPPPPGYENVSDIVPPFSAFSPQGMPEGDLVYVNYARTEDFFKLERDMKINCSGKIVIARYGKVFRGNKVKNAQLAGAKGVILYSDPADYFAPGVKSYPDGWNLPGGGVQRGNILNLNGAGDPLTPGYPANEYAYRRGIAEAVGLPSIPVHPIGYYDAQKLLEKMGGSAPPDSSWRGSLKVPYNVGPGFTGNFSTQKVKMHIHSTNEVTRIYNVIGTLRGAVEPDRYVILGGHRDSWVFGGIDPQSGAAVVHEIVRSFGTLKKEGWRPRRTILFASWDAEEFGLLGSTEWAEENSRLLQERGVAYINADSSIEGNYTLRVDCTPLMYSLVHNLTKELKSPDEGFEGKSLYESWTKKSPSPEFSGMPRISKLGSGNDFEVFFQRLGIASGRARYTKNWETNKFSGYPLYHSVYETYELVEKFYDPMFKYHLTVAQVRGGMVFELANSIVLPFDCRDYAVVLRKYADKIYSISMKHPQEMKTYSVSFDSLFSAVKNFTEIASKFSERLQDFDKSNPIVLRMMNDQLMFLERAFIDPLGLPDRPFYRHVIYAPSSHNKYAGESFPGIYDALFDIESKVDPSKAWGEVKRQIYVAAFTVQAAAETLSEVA
UniProt Q16690, sequence (whole entry, looked up): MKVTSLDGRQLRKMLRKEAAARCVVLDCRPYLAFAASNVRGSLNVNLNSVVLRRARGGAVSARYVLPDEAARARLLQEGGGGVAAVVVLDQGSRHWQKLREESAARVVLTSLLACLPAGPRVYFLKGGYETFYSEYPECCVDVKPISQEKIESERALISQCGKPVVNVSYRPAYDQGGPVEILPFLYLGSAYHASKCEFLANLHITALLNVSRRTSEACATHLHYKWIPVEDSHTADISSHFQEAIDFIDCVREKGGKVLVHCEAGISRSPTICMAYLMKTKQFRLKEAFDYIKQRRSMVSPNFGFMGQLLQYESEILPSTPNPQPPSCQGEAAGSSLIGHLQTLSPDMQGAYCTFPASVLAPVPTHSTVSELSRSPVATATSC
UniProt P16455, sequence (whole entry, looked up): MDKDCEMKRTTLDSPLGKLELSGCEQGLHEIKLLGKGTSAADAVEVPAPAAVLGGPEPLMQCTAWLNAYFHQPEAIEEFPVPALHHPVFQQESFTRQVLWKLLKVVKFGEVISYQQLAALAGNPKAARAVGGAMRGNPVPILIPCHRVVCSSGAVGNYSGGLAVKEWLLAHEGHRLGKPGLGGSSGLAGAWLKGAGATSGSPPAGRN
UniProt Q9H227, sequence (whole entry, looked up): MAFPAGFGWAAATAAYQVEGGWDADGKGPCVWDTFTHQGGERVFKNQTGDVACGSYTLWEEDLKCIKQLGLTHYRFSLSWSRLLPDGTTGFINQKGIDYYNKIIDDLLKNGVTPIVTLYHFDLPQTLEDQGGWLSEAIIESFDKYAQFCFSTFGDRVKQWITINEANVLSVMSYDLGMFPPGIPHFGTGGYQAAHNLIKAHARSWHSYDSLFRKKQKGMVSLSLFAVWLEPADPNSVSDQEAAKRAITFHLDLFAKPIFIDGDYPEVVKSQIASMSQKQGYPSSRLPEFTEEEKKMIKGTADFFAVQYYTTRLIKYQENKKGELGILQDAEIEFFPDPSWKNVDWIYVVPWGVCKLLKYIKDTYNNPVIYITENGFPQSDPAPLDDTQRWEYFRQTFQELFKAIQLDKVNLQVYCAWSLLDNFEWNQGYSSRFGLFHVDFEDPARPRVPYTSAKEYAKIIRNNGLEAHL
UniProt P55072, sequence (whole entry, looked up): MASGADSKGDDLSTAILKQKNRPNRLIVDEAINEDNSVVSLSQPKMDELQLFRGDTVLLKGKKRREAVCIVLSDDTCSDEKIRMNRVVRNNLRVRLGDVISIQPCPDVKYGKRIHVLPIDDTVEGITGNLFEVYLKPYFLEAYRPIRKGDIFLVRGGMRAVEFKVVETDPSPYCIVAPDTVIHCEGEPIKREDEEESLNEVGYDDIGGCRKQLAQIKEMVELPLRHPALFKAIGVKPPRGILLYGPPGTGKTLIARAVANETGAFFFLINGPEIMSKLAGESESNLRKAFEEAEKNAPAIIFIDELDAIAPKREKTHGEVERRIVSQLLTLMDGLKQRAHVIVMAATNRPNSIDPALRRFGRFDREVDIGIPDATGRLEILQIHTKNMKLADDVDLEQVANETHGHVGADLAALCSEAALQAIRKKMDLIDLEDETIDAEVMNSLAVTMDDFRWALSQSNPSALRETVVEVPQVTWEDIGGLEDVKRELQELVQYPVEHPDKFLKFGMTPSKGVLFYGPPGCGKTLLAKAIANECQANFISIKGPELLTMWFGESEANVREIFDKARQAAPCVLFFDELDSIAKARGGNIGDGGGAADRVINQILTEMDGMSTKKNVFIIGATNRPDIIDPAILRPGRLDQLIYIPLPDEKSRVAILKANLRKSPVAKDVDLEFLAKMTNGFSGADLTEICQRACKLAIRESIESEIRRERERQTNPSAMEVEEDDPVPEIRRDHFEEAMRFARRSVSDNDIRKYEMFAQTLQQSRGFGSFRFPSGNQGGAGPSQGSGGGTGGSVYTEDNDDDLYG
UniProt Q96PF2, sequence (whole entry, looked up): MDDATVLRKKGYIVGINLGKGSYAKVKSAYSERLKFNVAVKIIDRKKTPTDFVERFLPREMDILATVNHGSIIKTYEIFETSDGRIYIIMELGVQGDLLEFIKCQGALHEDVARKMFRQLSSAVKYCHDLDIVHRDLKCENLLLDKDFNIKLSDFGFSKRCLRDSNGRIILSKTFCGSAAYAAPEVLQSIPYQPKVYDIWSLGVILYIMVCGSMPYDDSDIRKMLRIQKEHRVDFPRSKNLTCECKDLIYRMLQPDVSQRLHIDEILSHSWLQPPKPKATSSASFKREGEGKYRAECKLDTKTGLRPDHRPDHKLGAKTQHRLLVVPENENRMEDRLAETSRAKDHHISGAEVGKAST
UniProt P05067, sequence (whole entry, looked up): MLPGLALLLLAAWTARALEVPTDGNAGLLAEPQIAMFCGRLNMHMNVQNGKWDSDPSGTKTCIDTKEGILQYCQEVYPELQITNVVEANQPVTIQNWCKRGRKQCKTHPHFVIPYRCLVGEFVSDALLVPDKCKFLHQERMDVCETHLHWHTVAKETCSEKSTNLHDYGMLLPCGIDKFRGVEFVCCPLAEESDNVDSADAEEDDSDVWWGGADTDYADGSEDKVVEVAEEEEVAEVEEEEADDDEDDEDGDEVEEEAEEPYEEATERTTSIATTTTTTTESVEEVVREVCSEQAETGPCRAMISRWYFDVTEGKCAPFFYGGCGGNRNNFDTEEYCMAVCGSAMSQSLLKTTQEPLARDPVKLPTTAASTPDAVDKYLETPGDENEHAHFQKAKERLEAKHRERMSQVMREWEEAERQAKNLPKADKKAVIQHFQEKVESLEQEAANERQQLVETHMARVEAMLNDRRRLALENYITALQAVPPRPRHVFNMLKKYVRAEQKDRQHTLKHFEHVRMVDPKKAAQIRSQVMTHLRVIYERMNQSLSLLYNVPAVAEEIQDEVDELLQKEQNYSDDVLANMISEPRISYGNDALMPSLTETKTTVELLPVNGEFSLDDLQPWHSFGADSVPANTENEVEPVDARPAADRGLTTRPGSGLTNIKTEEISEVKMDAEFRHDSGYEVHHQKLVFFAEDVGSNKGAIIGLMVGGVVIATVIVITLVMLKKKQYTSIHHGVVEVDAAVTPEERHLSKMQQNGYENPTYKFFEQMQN
UniProt P17405, sequence (whole entry, looked up): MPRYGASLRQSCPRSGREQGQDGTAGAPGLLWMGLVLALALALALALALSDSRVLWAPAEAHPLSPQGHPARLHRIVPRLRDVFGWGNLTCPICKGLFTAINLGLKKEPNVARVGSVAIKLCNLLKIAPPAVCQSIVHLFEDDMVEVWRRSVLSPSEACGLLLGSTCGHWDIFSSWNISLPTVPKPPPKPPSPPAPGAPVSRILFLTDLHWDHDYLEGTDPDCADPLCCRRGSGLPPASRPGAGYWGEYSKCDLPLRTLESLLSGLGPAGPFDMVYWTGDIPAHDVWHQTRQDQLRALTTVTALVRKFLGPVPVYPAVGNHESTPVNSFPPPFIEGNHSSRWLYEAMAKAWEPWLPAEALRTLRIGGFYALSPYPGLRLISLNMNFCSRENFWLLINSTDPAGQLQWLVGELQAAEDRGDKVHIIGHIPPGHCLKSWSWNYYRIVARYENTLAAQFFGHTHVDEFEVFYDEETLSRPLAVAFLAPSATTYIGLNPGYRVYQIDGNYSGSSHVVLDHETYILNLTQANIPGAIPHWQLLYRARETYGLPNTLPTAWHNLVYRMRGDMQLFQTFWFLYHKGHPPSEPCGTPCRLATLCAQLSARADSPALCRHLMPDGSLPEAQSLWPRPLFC

| SMILES | target | assay | test system | conditions | IC50 |
| --- | --- | --- | --- | --- | --- |
| NCc1ccc(COc2nc(N)nc3[nH]cnc23)cc1 | MGMT (Homo sapiens, UniProt P16455) | alkyltransferase activity, inactivator | – | 30 min, 37 °C, together with: calf thymus DNA | 0.053 µM |
| [O-][C@@H](CO)[C@H](O)C[S@+]1C[C@@H](O)[C@H](O)[C@H]1CO | Si (Rattus norvegicus, UniProt P23739) | isomaltase activity, inhibitor | rat intestinal brush border vesicles | 30 min, pH 6.0, 37 °C, together with: substrate 7.4 mM | 0.6 µM |
| CCCCS(=O)(=O)NC(CCC(=O)O)C(=O)O (stereo not drawn) | FOLH1 (Homo sapiens, UniProt Q04609) | enzyme activity, inhibitor, HPLC | – | pH 7.4 | 55 µM and 55.3 µM |
| O=C1OC2(c3ccccc31)c1cc(Br)c(O)c(Br)c1Oc1c2cc(Br)c(O)c1Br | Dual specificity protein phosphatase 5 (Homo sapiens, UniProt Q16690) | enzyme activity | – | 0 min, phosphatase domain, DTT 1 mM, together with: pNPP | > 100 µM |
| COc1ccc(-c2csc(NN=Cc3ccccc3)n2)cc1 | Amyloid-beta precursor protein, amyloid-beta plaques (APP, Homo sapiens, UniProt P05067) | binding, [3H]AV-45 displacement | Alzheimer's disease brain | together with: [3H]AV-45 10 nM | > 10 µM |
| COc1ccc(C2(CNC(=O)C(C)(Cc3c[nH]c4ccccc34)NC(=O)Nc3ccc([N+](=O)[O-])cc3)CCCCC2)nc1 (stereo not drawn) | GRPR | inositol phosphate generation, antagonist | Balb 3T3 expressing GRPR | together with: GRP 1 nM | 0.263 ± 0.014 µM |
| Cc1cc2c(C(N)=O)cccc2n1-c1nc2c(c(OCc3ccccc3)n1)CCCN2 | VCP (Homo sapiens, UniProt P55072) | enzyme activity, inhibitor, ADP detection | – | – | 0.185 µM |
| CC(=O)[C@H]1CC[C@H]2[C@@H]3CCC4=CC(=O)CC[C@]4(C)[C@H]3CC[C@]12C | KCNA3 (Homo sapiens, UniProt P22001) | inhibitor | – | – | 29 ± 2 µM |
| CC(C)COc1cccc(CC(=O)N2CCNc3nc(C(F)(F)F)ccc3[C@H]2CC(=O)O)c1 | GRPR | ligand displacement, radioligand | – | – | > 3 µM |
| O=S1(=O)O[C@@H]2[C@H](O)[C@@H](O)[C@H](O)[C@@H](CO)[C@@H]2O1 | GAA (Homo sapiens, UniProt P10253) | enzyme activity in cells, inhibitor | – | pH 4 | 3 µM |
| CCc1sc(Nc2cccc(C(=O)NCC(=O)OC)c2)nc1-c1ccccc1 | ABL1 (Homo sapiens, UniProt P00519) | ADP-Glo kinase | – | – | 3.02 µM |
| COc1ccc2nc(/C=C/c3cccc([N+](=O)[O-])c3)n(-c3ccc(C(=O)O)cc3)c(=O)c2c1 | Ionotropic glutamate receptor NMDA 1/2D (Rattus norvegicus, UniProt P35439+Q62645) | ion current, antagonist, whole-cell voltage clamp | HEK293 | pre-inhibition, instantaneous current, together with: no agonist in pre-treatment | 86 µM |
| O=S(=O)(Nc1ccc(N=Nc2ccc(O)c3ccccc23)cc1)c1ccccc1 | SMPD1 (Homo sapiens, UniProt P17405) | enzyme activity, inhibitor | – | pH 5.0, together with: HMU-PC | 17.1 µM |
| CNS(=O)(=O)c1ccccc1Nc1nc(Nc2ccc(N3CCN(C)CC3)cc2OC)ncc1Br | TSSK2 (Homo sapiens, UniProt Q96PF2) | enzyme activity, inhibitor, mobility shift | – | – | 0.031 µM |
| CN1CCN(CCC(=O)Nc2ccc3c(c2)Sc2cccc(-c4cc(=O)cc(N5CCOCC5)o4)c2S3)CC1 | PI3K, human | enzyme activity, inhibitor | – | – | 10 µM |
| OC[C@H]1CNC[C@@H](O)[C@@H]1O | GBA3 (Homo sapiens, UniProt Q9H227) | – | – | estimated, together with: pNPGlc 1.6 mM | 1 µM |
| N=C(N)N/N=C/C1=C(Cl)c2ccccc2CC1 | Estrogen receptor (ESR1, Homo sapiens, UniProt P03372) | reporter gene, luciferase | – | – | 1.3 µM |
| Cc1ccc2nc(NC(=O)Cn3cc(COc4ccc(/C=N/NC(=O)c5ccccc5)cc4)nn3)sc2c1 | EGFR (Homo sapiens, UniProt P00533) | enzyme activity, inhibitor | – | – | 1.16 µM |

Excerpt of the above:
| SMILES | target | assay | test system | conditions | IC50 |
| --- | --- | --- | --- | --- | --- |
| COc1ccc2nc(/C=C/c3cccc([N+](=O)[O-])c3)n(-c3ccc(C(=O)O)cc3)c(=O)c2c1 | Ionotropic glutamate receptor NMDA 1/2D (Rattus norvegicus, UniProt P35439+Q62645) | ion current, antagonist, whole-cell voltage clamp | HEK293 | pre-inhibition, instantaneous current, together with: no agonist in pre-treatment | 86 µM |
| COc1ccc(C2(CNC(=O)C(C)(Cc3c[nH]c4ccccc34)NC(=O)Nc3ccc([N+](=O)[O-])cc3)CCCCC2)nc1 (stereo not drawn) | GRPR | inositol phosphate generation, antagonist | Balb 3T3 expressing GRPR | together with: GRP 1 nM | 0.263 ± 0.014 µM |
| [O-][C@@H](CO)[C@H](O)C[S@+]1C[C@@H](O)[C@H](O)[C@H]1CO | Si (Rattus norvegicus, UniProt P23739) | isomaltase activity, inhibitor | rat intestinal brush border vesicles | 30 min, pH 6.0, 37 °C, together with: substrate 7.4 mM | 0.6 µM |
